{"data": "Published values pooled from the literature", "ache": "Acetylcholinesterase (ache, Electrophorus electricus, UniProt O42275)", "dcp2 with Dcp1": "mRNA decapping complex subunit 2, with Dcp1 (dcp2, Schizosaccharomyces pombe, UniProt O13828)", "note": "Several values in a cell are separate wells, animals, samples, runs or records. ± marks the error that the study gave.", "sequence of UniProt O42275 (whole entry, looked up)": "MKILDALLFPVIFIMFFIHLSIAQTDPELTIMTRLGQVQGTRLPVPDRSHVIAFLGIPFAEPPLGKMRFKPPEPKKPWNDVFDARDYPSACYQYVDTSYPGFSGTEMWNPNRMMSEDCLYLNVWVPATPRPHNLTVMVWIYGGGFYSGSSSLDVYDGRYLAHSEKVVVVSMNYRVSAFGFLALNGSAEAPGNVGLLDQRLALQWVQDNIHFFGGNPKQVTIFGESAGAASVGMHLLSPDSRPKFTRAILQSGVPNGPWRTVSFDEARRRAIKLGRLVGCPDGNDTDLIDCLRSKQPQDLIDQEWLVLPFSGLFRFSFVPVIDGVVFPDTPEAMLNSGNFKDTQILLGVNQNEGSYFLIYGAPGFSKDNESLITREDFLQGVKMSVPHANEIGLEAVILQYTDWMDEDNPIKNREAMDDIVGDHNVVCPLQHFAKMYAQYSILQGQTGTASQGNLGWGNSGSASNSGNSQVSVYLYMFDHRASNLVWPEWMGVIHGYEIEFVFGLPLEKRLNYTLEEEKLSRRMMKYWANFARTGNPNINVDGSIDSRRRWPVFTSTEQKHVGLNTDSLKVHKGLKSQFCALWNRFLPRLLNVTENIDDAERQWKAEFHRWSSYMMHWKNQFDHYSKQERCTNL", "sequence of UniProt O13828 (whole entry, looked up)": "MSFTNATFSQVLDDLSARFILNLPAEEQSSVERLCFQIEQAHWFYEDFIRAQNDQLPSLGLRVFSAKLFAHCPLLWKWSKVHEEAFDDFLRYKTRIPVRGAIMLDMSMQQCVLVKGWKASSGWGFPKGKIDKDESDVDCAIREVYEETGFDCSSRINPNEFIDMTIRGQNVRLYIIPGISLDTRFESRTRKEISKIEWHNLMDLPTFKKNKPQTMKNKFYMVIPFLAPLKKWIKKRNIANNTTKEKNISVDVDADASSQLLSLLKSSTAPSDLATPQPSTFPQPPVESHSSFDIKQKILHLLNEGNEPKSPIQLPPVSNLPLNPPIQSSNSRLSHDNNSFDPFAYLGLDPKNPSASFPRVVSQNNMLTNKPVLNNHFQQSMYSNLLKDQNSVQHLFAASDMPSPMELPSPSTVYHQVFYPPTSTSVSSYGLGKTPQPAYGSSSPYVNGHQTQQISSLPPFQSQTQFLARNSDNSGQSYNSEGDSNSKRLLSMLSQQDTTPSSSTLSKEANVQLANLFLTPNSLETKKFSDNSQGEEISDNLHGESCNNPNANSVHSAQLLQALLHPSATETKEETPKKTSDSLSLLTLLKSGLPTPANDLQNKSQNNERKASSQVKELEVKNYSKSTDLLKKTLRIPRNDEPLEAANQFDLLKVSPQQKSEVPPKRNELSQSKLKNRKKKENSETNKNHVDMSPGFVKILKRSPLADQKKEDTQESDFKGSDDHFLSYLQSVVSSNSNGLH", "sequence of UniProt P51817 (whole entry, looked up)": "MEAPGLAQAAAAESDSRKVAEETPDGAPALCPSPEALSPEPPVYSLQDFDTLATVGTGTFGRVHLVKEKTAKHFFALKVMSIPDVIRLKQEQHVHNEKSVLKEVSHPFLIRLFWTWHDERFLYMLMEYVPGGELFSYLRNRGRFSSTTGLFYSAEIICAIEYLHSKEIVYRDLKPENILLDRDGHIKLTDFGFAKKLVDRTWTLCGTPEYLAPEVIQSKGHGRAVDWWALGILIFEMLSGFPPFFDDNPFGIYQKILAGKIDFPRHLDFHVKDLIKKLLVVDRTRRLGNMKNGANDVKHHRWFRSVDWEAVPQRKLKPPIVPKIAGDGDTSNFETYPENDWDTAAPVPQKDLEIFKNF", "sequence of UniProt P49137 (whole entry, looked up)": "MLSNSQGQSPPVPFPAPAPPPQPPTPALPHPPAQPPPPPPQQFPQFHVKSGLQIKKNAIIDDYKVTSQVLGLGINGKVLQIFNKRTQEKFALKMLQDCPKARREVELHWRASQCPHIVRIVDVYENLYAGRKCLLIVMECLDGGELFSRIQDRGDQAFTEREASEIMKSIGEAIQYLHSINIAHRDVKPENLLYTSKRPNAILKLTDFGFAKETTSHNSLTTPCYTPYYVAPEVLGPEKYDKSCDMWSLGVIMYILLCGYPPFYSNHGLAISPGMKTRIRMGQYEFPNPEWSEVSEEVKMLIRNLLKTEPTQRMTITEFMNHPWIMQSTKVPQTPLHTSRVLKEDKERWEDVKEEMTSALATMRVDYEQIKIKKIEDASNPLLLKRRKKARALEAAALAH", "sequence of UniProt Q9BTU6 (whole entry, looked up)": "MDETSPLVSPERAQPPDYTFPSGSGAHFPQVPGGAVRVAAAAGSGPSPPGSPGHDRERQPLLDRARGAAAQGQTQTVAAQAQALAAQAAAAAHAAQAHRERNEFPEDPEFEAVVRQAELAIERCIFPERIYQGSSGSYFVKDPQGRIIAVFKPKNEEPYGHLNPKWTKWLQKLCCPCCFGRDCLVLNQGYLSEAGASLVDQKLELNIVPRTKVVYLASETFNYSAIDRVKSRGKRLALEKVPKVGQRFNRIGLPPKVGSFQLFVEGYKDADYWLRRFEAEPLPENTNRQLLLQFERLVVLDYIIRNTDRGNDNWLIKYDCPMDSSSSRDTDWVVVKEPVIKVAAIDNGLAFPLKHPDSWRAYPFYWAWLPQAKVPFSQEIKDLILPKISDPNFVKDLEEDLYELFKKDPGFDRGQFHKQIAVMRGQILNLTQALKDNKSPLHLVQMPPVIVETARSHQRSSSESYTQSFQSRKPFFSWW", "sequence of UniProt Q5TCX8 (whole entry, looked up)": "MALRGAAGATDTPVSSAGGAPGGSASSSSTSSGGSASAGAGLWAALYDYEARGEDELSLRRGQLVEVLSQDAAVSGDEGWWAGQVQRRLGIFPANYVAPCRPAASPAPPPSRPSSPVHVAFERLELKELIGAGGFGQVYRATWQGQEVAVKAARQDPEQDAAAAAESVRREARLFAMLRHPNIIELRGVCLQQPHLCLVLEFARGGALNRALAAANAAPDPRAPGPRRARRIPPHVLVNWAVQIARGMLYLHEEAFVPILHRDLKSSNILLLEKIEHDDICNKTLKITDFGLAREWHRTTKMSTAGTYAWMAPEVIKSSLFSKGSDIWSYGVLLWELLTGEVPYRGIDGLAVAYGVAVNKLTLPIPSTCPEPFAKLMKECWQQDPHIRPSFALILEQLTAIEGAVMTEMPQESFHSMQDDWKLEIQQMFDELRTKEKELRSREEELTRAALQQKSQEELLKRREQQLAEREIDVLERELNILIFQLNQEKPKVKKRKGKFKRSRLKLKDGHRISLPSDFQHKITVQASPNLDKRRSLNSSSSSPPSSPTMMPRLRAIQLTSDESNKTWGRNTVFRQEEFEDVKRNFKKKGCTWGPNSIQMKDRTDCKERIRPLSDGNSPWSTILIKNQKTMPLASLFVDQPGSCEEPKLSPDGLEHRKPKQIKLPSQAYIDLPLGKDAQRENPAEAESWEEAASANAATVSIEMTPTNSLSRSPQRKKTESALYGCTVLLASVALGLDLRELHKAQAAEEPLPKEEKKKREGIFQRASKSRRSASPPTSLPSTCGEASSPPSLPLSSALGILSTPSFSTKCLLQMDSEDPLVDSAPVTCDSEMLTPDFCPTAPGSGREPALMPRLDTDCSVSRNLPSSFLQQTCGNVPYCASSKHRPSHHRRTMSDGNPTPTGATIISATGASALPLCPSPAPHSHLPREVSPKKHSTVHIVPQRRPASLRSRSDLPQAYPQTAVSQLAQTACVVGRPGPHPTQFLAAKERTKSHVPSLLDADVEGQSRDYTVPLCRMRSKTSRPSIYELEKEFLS", "sequence of UniProt Q13639 (whole entry, looked up)": "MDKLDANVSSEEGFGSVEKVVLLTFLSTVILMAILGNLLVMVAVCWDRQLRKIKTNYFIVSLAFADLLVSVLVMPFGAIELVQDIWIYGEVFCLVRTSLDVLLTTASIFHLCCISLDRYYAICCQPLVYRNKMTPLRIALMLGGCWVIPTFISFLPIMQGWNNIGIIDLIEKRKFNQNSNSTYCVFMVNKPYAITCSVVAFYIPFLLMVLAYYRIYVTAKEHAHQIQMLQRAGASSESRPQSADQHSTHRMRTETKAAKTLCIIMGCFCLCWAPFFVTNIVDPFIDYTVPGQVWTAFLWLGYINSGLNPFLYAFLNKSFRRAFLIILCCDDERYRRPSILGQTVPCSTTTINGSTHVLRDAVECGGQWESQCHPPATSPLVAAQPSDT", "sequence of UniProt Q99720 (whole entry, looked up)": "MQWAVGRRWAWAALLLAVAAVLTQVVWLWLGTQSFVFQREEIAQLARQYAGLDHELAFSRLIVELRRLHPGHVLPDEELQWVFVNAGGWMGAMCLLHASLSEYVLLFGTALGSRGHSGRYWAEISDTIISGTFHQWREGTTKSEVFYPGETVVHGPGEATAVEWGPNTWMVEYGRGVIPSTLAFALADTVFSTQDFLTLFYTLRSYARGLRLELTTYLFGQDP", "sequence of UniProt Q8NE63 (whole entry, looked up)": "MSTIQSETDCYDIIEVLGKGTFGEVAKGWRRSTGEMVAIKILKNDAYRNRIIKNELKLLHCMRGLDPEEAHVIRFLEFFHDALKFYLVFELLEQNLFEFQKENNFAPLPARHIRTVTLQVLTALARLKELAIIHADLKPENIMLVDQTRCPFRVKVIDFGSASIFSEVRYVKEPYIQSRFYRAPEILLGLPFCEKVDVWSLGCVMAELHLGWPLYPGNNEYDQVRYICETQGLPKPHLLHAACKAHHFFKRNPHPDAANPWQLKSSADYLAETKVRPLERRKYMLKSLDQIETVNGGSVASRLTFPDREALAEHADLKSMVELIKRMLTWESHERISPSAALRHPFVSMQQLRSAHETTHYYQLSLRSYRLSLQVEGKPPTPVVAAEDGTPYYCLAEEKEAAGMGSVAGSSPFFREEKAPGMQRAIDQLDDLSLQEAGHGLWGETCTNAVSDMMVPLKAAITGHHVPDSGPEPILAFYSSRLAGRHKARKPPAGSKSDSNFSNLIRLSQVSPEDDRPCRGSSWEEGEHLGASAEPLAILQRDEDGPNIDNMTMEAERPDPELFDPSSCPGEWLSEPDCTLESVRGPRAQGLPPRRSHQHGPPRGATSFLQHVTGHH"}
{"Compound": "CS(C)(=O)=Nc1ccc(-c2ccc(-c3nc4cc(O[C@@H]5CO[C@H]6[C@@H]5OC[C@H]6O)[nH]c4cc3F)cc2)cc1", "tested on": "PRKX (Homo sapiens, UniProt P51817)", "test": "enzyme activity, inhibitor", "conditions": "10 µM", "quantity": "inhibition", "value": "-2%"}
{"Compound": "CN[C@@H]1[C@H](O)[C@H](NC)[C@H]2O[C@]3(O)[C@H](O[C@@H]2[C@H]1O)O[C@H](C)C[C@H]3NC(=O)Cc1ccc(Cl)cn1", "tested on": "SIGMAR1 (Homo sapiens, UniProt Q99720)", "test": "ligand displacement, radioligand", "conditions": "10 µM", "quantity": "inhibition", "value": "-2%"}
{"Compound": "O=C1NC2(CC2)COc2ncc(F)cc2[C@H]2COCCN2c2ccn3ncc1c3n2", "test system": "Sprague-Dawley rat, male, testes", "conditions": "oral, 20 mg/kg/day, 4 weeks, end of treatment", "quantity": "organ-to-brain weight ratio", "value": "153 ± 8.23%"}
{"Compound": "O=C(O)c1ccccc1/C=N/Nc1nc(-c2ccccc2Cl)cs1", "tested on": "FYN (Homo sapiens, UniProt P06241)", "test": "enzyme activity, inhibitor", "conditions": "1 µM", "quantity": "inhibition", "value": "-1.82%"}
{"Compound": "O=C1NC(=O)c2c1c1cc(F)c[n+]3c1c1c2c2cc(O)ccc2[n]1[Ru-4]312([N]=C=S)[S+]3CC[S+]1CC[S+]2CC3 (stereo not drawn)", "tested on": "PAK3 (Homo sapiens, UniProt O75914)", "test": "enzyme activity", "conditions": "100 nM, human enzyme, together with: 10 µM ATP", "scale": "relative to: untreated", "quantity": "remaining activity", "value": "29%"}
{"Compound": "C[C@H](NCc1ccc(-c2ccc(C(F)(F)F)cc2)cc1)C(N)=O", "tested on": "PIK3CA (Homo sapiens, UniProt P42336)", "test": "cell-free assay, competition with immobilised ligand", "conditions": "1 µM", "quantity": "inhibition", "value": "0%"}
{"Compound": "COc1ccccc1-c1n[nH]c2nc(NC3CCN(C(=O)Cc4ccc(F)cc4F)CC3)ncc12", "test": "bead binding, competition bead pull-down, refers to: LINJ.29.2310", "test system": "Leishmania donovani axenic amastigote extract", "conditions": "10 µM", "scale": "relative to: vehicle", "quantity": "relative abundance", "value": 0.95}
{"Compound": "CC(=O)N[C@H]1[C@H]([C@H](O)[C@H](O)CO)O[C@@](O[C@H]2[C@@H](O)[C@@H](CO)O[C@@H](Oc3ccc([N+](=O)[O-])cc3)[C@@H]2O)(C(=O)O)C[C@@H]1N=[N+]=[N-]", "tested on": "Sialidase A (nanA, Streptococcus pneumoniae, UniProt P62575)", "conditions": "8 µM, pH 6", "quantity": "inhibition", "value": "0.6 ± 2.7%"}
{"Compound": "CN(C)[C@H]1C[C@@]23CC[C@@]4(O2)C(=CC[C@]2(C)[C@@H](c5ccc6ccncc6c5)CC[C@H]24)C=C3[C@@H](O)[C@@H]1O", "tested on": "PI4K2A (Homo sapiens, UniProt Q9BTU6)", "test": "ATP probe labelling, inhibitor, KiNativ profiling", "conditions": "1 µM", "quantity": "inhibition", "value": "9.6%"}
{"Compound": "O=C(NC1CCN(c2ncnc3[nH]cnc23)CC1)c1cccc(NS(=O)(=O)c2ccc(C(F)(F)F)cc2)c1", "tested on": "Replicase polyprotein 1ab, nsp14 (Human coronavirus OC43, UniProt P0C6X6)", "test": "enzyme activity", "conditions": "12.5 µM", "quantity": "inhibition", "value": "78.8%"}
{"Compound": "Cc1ccc(-n2cc(CCS(=O)(=O)F)nn2)cc1", "tested on": "ache", "test": "Ellman", "conditions": "20 µM", "quantity": "inhibition", "value": "34.6 ± 2.1%"}
{"Compound": "BP(=O)(OC[C@H]1O[C@@H](n2c[n+](C)c3c(O)nc(N)nc32)[C@H](O)[C@@H]1O)OP(=O)([O-])CP(=O)([O-])OP(B)(=O)OC[C@H]1O[C@@H](n2c[n+](C)c3c(O)nc(N)nc32)[C@H](O)[C@@H]1O (stereo partly drawn)", "tested on": "dcp2 with Dcp1", "conditions": "200 µM, 0.5 h", "quantity": "inhibition", "value": "40.9%"}
{"Compound": "Cc1ccc(N2CC3CN(C)CC3C2)cc1C(=O)N[C@H](C)c1cc(-c2cnn(C)c2)nc2ccccc12 (stereo partly drawn)", "tested on": "African green monkey cells", "conditions": "7.812 µM", "quantity": "viability", "value": "86.8%"}
{"Compound": "CCN(CC)CCNC(=O)c1ccc(Nc2nccc3[nH]c(-c4cccc(OC)c4F)nc23)cc1", "tested on": "ache", "test": "enzyme activity, inhibitor, Ellman", "conditions": "5 µM", "quantity": "inhibition", "value": "77.1%"}
{"Compound": "CC(C)[C@H]1NC(=O)C[C@H]2/C=C/CCSSC[C@@H](NC1=O)C(=O)N[C@H](Cc1cccc3ccccc13)C(=O)NCC(=O)O2", "tested on": "EIF2AK2 (Homo sapiens, UniProt P19525)", "test": "enzyme activity, inhibitor", "conditions": "10 µM", "quantity": "inhibition", "value": "0.281%"}
{"Compound": "O=S(=O)(F)CCc1cn(-c2cnc3ccccc3c2)nn1", "tested on": "ache", "conditions": "20 µM", "quantity": "inhibition", "value": "47 ± 2%"}
{"Compound": "CC(=O)NC[C@@H]1[C@@H](O)C[C@H]2[C@H](O)C[C@@H](CO)N12", "tested on": "human placental β-N-acetylglucosaminidase", "conditions": "0.0856 µM, run 1, together with: p-nitrophenyl GlcNAc", "quantity": "inhibition", "value": "55.3%"}
{"Compound": "COc1ccc(F)cc1S(=O)(=O)Nc1cnc2c(c1)C(=O)NCCO2", "tested on": "calcium channel, L-type, Phenylalkylamine site", "test": "radioligand binding", "conditions": "10 µM", "quantity": "inhibition", "value": "0%"}
{"Compound": "COc1ccccc1N1CCN(CCCCN2CCCc3ccccc3C2=O)CC1", "tested on": "HTR4 (Homo sapiens, UniProt Q13639)", "test": "radioligand binding", "conditions": "concentration not given", "quantity": "inhibition", "value": "-2%"}
{"Compound": "c1ccc2c(c1)CCNC2", "tested on": "ache", "test": "enzyme activity, inhibitor, Ellman", "conditions": "20 µM", "quantity": "inhibition", "value": "35.2%"}
{"Compound": "Cc1ccc2c(n1)c(-c1cccc(S(C)(=O)=O)c1)c(C)n2C/C(F)=C/CN", "tested on": "ADRA1D (Homo sapiens, UniProt P25100)", "test": "off-target safety screen", "conditions": "10 µM", "quantity": "inhibition", "value": "-7%"}
{"Compound": "CC(C)(C)C(=O)OCOP(=O)(OCOC(=O)C(C)(C)C)C1CCCN(O)C1=O (stereo not drawn)", "tested on": "MDA-MB-231", "quantity": "CC50", "value": "> 100 µM"}
{"Compound": "COc1cc([N+](=O)[O-])ccc1-n1cc(CCS(=O)(=O)F)nn1", "tested on": "ache", "conditions": "20 µM", "quantity": "inhibition", "value": "41.6 ± 3%"}
{"Compound": "Cc1ccc(OCCN(C)C)cc1C(=O)N[C@H](C)c1cc(-c2cnn(CC(C)(C)O)c2)nc2ccccc12", "tested on": "Vero E6", "conditions": "7.812 µM", "quantity": "viability", "value": "101% and 111%"}
{"Compound": "C[n+]1cn([C@@H]2O[C@H](COP(=O)([O-])NP(=O)(O)O)[C@@H](O)[C@H]2O)c2nc(N)nc(O)c21", "tested on": "dcp2 with Dcp1", "conditions": "200 µM, 0.5 h", "quantity": "inhibition", "value": "26.1%"}
{"Compound": "N[C@H](C(=O)N1CCCC1)C1CCN(c2nccc3c(-c4ncc(Cl)cc4Cl)cccc23)CC1", "tested on": "MAPKAPK2 (Homo sapiens, UniProt P49137)", "test": "kinase activity, inhibitor", "conditions": "10 µM, together with: ATP 1 mM", "quantity": "inhibition", "value": "8.3%"}
{"Compound": "C=CC(=O)Nc1cc(-c2nn(C3CCC(N4CCN(C(C)=O)CC4)CC3)c3ncnc(N)c23)ccc1Oc1ccccc1 (stereo not drawn)", "tested on": "MAP3K21 (Homo sapiens, UniProt Q5TCX8)", "test": "inhibitor, KiNativ profiling", "test system": "biochemical", "conditions": "2 µM", "quantity": "inhibition", "value": "1%"}
{"Compound": "CC(C)(C)c1cc2oc3c(c2c(/C=N/NC(=O)c2ccc(O)cc2O)c1O)CCCC3", "tested on": "PDE6D (Homo sapiens, UniProt O43924)", "test": "enzyme activity, inhibitor", "conditions": "5 µM", "quantity": "inhibition", "value": "35.4%"}
{"Compound": "CN(/N=C/c1ccccc1C(=O)O)c1nc(-c2ccccc2Cl)cs1", "tested on": "HIPK4 (Homo sapiens, UniProt Q8NE63)", "test": "enzyme activity, inhibitor", "conditions": "1 µM", "quantity": "inhibition", "value": "-14.3%"}
{"Compound": "O=C(CN1CN(c2ccccc2)C2(CCN(C(=O)c3cnc4[nH]ncc4c3)CC2)C1=O)NCC(F)(F)F", "tested on": "PKMYT1 (Homo sapiens, UniProt Q99640)", "test": "inhibitor", "conditions": "concentration not given", "quantity": "inhibition", "value": "< 50%"}
{"note": "A few entries again:"}
{"Compound": "COc1ccccc1N1CCN(CCCCN2CCCc3ccccc3C2=O)CC1", "tested on": "HTR4 (Homo sapiens, UniProt Q13639)", "test": "radioligand binding", "conditions": "concentration not given", "quantity": "inhibition", "value": "-2%"}
{"Compound": "O=C1NC(=O)c2c1c1cc(F)c[n+]3c1c1c2c2cc(O)ccc2[n]1[Ru-4]312([N]=C=S)[S+]3CC[S+]1CC[S+]2CC3 (stereo not drawn)", "tested on": "PAK3 (Homo sapiens, UniProt O75914)", "test": "enzyme activity", "conditions": "100 nM, human enzyme, together with: 10 µM ATP", "scale": "relative to: untreated", "quantity": "remaining activity", "value": "29%"}
{"Compound": "CC(C)(C)C(=O)OCOP(=O)(OCOC(=O)C(C)(C)C)C1CCCN(O)C1=O (stereo not drawn)", "tested on": "MDA-MB-231", "quantity": "CC50", "value": "> 100 µM"}
